Measurements pooled from the literature.
Compare with care: the assays were run in different laboratories. Several values in a cell are separate wells, animals, samples, runs or records. Numbers after ± are the reported error.

SMILES	assay	system	conditions	how to read	quantity	value
C=CC[C@@H]1c2ccc(OC)c(OC)c2CN2CCc3cc4c(cc3[C@H]12)OCO4	–	P2rx7+/+ mouse, S. aureus wound infection	dose not given, day 0	relative to: day 0	relative wound size	1
COCCOC(=O)C1=C(C)NC(C)=C(C(=O)OC(C)C)C1c1cccc([N+](=O)[O-])c1 (centres unmarked)	whole-cell current clamp	DRG neurons, naive rat	dose not given	–	resting membrane potential	-64.6 mV and -69.2 mV and -62.9 mV and -75.6 mV and -64.8 mV and -68.7 mV
COc1cc2cc(-c3ccc(CC(=O)Nc4cc(C(C)(C)C(F)(F)F)no4)cn3)cnc2cc1OC	RECIST v1.1	RET-altered advanced solid tumour patients	oral, 10 mg once daily, phase I	–	stable disease as best response	100%
Cc1cc(F)cc2c(CCC(=O)N[C@@H]3C(=O)NC[C@H]3O)c(-c3ccc(F)cc3)[nH]c12	–	mice, APOL1 G2, single copy	oral, 30 mg/kg twice daily, day 12, dosing from day 6, with: IFNγ plasmid injection	–	UACR	677 µg/mg
CCO[C@H]1CCN(Cc2c(OC)cc(C)c3[nH]ccc23)[C@H](c2ccc(C(=O)O)cc2)C1	–	PNH patients, blood	oral, 50 mg then 200 mg, week 8, mean absolute change	relative to: baseline	C3d-positive type III RBCs	-1.7%
Cn1cc(Nc2nccc(-c3ccc4c(c3)CN(C3COC3)CC[C@H]4NC(=O)c3cn(C(C)(C)C)nn3)n2)cn1	measured: Glioblastoma Multiforme Signaling	splenic B cells, mouse	in vivo, 30 mg/kg, IgD-activated B cells	relative to: vehicle, positive = activation	pathway activation z-score	2.67
COc1nc(NCc2cn(-c3ccc(C(=O)Nc4ccc(Cl)cc4)cc3)nn2)nc(OC)n1	cell viability, MTT	normal colonocytes, rat	72 h	–	IC50	105.8 ± 0.22 nM
CC(C)NCC(O)c1ccc(O)c(O)c1 (centres unmarked)	–	ventricular cardiomyocytes, C57BL/6 mouse	dose not given, 0.38 s	–	sarcomere length	1.72 µm
N#Cc1ccc2c(-c3ccncc3)c(-c3ccc(F)cc3)nn2c1	kinase binding, competitor, MIB/MS competition, measured: RCK2	Candida albicans cell lysate	10 µM	relative to: DMSO	log2 fold change	0.248
COc1cc(C(=O)NS(=O)(=O)c2ccccc2C)ccc1Cc1cn(C)c2ccc(NC(=O)OC3CCCC3)cc12	P-selectin exposure, flow cytometry, measured: P-selectin	human platelet-rich plasma	10 µM, with: CRP 5 µg/mL	–	inhibition	5%
O=C(OC(C(F)(F)F)C(F)(F)F)N1CCN(Cc2cccc(Oc3ccccc3)c2)CC1	PET	rhesus monkey, pons	intravenous, 0.1 mg/kg, pretreatment blocking, with: [18F]T-401	–	tracer distribution volume	2.31 mL/cm3
c1ccc(-c2n[nH]cc2-c2ccnc3ccccc23)nc1	kinase binding, competitor, MIB/MS competition, measured: YAK1	Candida albicans cell lysate	10 µM	relative to: DMSO	log2 fold change	1.08
O=S(=O)(Nc1nccs1)c1ccc(N=NN(O)c2ccccc2)cc1	carrageenan-induced paw edema	Wistar rat	oral, 100 mg/kg, 0 h (baseline), with: carrageenan 1% subplantar	higher = more edema	paw edema volume	3.72 ± 0.71 a.u.
NC(=O)c1cnc2[nH]ccc2c1N[C@@H]1[C@@H]2CC3C[C@H]1C[C@@](O)(C3)C2	total naive T cells, flow cytometry	Japanese humans, peripheral blood	20 mg single dose	relative to: baseline	percent change	0.5%
O[C@H]1CCCN[C@@H]1CCCn1cnc2c(Cl)c(Cl)ccc21	ELISA, measured: Pro-C3	healthy human volunteers, serum	intraduodenal, 100 mg twice daily, day 14, multiple ascending dose	–	maximum reduction	15.6%
CCN(O)N=Nc1ccc(S(=O)(=O)Nc2nccs2)cc1	carrageenan-induced paw edema	Wistar rat	oral, 100 mg/kg, 1 h after carrageenan, with: carrageenan 1% subplantar	higher = more edema	paw edema volume	6.31 ± 0.76 a.u.
O=C(O)CNC(=O)Cc1ccccc1	–	ventricular cardiomyocytes, C57BL/6 mouse	dose not given, 0.136 s	–	sarcomere length	1.69 µm
CSCCNc1nc(SCCC(F)(F)F)nc2c1ncn2[C@@H]1O[C@H](COP(=O)(O)OP(=O)(O)C(Cl)(Cl)P(=O)(O)O)[C@@H](O)[C@H]1O	platelet aggregation, light transmission aggregometry	human patients, platelet-rich plasma	dose not given, 30 min, with: TRAP 5 µM	–	inhibition	25.9 ± 27.8%
COc1cc(Nc2ncc3c(n2)-c2ccc(Cl)cc2C(c2c(F)cccc2OC)=NC3)ccc1C(=O)O	–	mouse, NB-SD neuroblastoma xenograft	oral, 5.2 mg/kg, day 7	relative to: vehicle	relative tumour volume T/C	1.88
CN(O)N=Nc1ccc(S(=O)(=O)Nc2nccs2)cc1	carrageenan-induced paw edema	Wistar rat	oral, 100 mg/kg, 4 h after carrageenan, with: carrageenan 1% subplantar	higher = more edema	paw edema volume	4.59 ± 0.81 a.u.
CCOC(=O)c1ccc(N)cc1	–	CD-1 mouse female	subcutaneous, 6.5 mg/mouse, 0 min	higher = stronger analgesia	tail flick latency	4.13 a.u. and 3.54 a.u. and 3.37 a.u. and 2.77 a.u. and 3.57 a.u.
OC(CCN1CCCCC1)(c1ccccc1)C1CC2C=CC1C2 (centres unmarked)	resting-state EEG	healthy elderly humans	oral, 4 mg, eyes open, LS mean	relative to: baseline	change, theta power, EEG O1-Pz	4.5%
CCCN(O)N=Nc1ccc(S(=O)(=O)Nc2cc(C)on2)cc1	carrageenan-induced paw edema	Wistar rat	oral, 100 mg/kg, 1 h after carrageenan, with: carrageenan 1% subplantar	higher = more edema	paw edema volume	5.71 ± 0.81 a.u.
FC(F)(F)Oc1cccc(-c2cnc3ccc(-c4ccncc4)nn23)c1	bioluminescence	mouse, MDA-MB-231-Luc xenograft	30 mg/kg, day 21	–	tumour growth	248% and 523% and 158% and 301% and 380%
C[C@H]1C[C@H]2CSC(N)=N[C@@]2(c2nc(NC(=O)c3ccc(OC(F)F)cn3)cs2)CO1	measured: Aβ1-40	healthy adults, plasma	5 mg once daily, day 14	relative to: placebo	percent change from baseline	-58.7%
NC(=NCCC[C@@H](C(=O)NCc1ccccc1)n1cc(-c2ccc(-c3ccccc3)cc2)nn1)c1ccc([N+](=O)[O-])o1	STING signalling, inhibitor, qPCR	iBMDM, mouse	dose not given, 2 h, with: diABZI 500 nM	–	IFN-beta mRNA level	inhibited
N#Cc1ccc2c(c1)[C@H]1CCCN(C(=O)c3ccc4[nH]cnc4c3)[C@H]1C2	–	human, urine	160 mg, 336 h, day 14 over day -1	relative to: placebo and baseline	total urinary corticosteroids	121 % change

SMILES	assay	system	conditions	how to read	quantity	value
COc1nc(NCc2cn(-c3ccc(NC(=O)c4ccc(Br)cc4)cc3)nn2)nc(OC)n1	cell viability, MTT	normal colonocytes, rat	72 h	–	IC50	15.7 ± 5.32 nM
CCN(O)N=Nc1ccc(S(=O)(=O)Nc2onc(C)c2C)cc1	carrageenan-induced paw edema	Wistar rat	oral, 100 mg/kg, 0 h (baseline), with: carrageenan 1% subplantar	higher = more edema	paw edema volume	3.39 ± 0.45 a.u.
CN(C)C(=O)Oc1cccc([N+](C)(C)C)c1	neuromuscular block reversal	rat	dose not given, 15.5 (unit not given), with: cisatracurium	relative to: T1 twitch	train-of-four ratio	97
COc1c(C)cnc(Cn2cc(C#CCCOP(=O)(O)O)c3c(Cl)nc(N)nc32)c1C	measured: HER-2 extracellular domain	human patients, serum	12 mg/m^2, 1 of 4 patients	–	serum HER-2 ECD decrease	< 20 % below baseline
N#Cc1ccc2c(c1)[C@H]1CCCN(C(=O)c3ccc4[nH]cnc4c3)[C@H]1C2	measured: HDL	human	240 mg once daily, day 28, adjusted mean	–	change from baseline	2.4 mg/dL
COc1cc(/C=C/C(=O)N2CCC=CC2=O)cc(OC)c1OC	quantitative RT-PCR, measured: cyclin D1, normalised to beta-actin	nude mouse, MDA-MB-468 xenograft, tumour	15 mg/kg, 21 days, unit not given	relative to: DMSO	mRNA level	0.794
Cc1cc(C)c(CNC(=O)c2cc(Cl)c3c(c2C)O[C@@](C)([C@H]2CC[C@H](N(C)C)CC2)O3)c(=O)[nH]1	IWG criteria	relapsed/refractory PTCL patients	dose not given	–	stable disease as best response	7%
CC#CC(=O)N[C@H]1CCCN(c2c(F)cc(C(N)=O)c3[nH]c(C)c(C)c23)C1	measured: IgM	human	0.3 mg once daily, day 21	relative to: baseline	serum immunoglobulin	5.6 % change
N#Cc1ccn2c(-c3ccncc3)c(-c3ccc(F)cc3)nc2c1	kinase binding, competitor, MIB/MS competition, measured: TOR1	Candida albicans cell lysate	10 µM	relative to: DMSO	log2 fold change	0.215
CC[C@H](C)[C@H](NC(=O)[C@H](CCC(=O)O)NC(=O)[C@H](C)NC(=O)[C@@H](NC(=O)[C@H](Cc1c[nH]cn1)NC(=O)[C@H]1CCC[C@@H]1NC(=O)[C@H](CCC(=O)O)NC(=O)[C@H](C)NC(=O)[C@H]1CCC[C@@H]1NC(=O)[C@H](CC(C)C)NC(=O)[C@H](Cc1c[nH]cn1)NC(=O)[C@H](Cc1c[nH]cn1)NC(=O)[C@H]1CCC[C@@H]1NC(=O)[C@H](Cc1ccccc1)NC(=O)[C@H](Cc1ccccc1)NC(=O)[C@H](CCCNC(=N)N)NC(=O)[C@H](CCCNC(=N)N)NC(=O)[C@H](CCCNC(=N)N)NC(=O)[C@H]1CCC[C@@H]1NC(=O)[C@H](CC(=O)O)NC(=O)[C@H](CCC(N)=O)NC(=O)[C@@H](NC(=O)C[C@H](Cc1c[nH]c2ccccc12)NC(=O)[C@H](CCCCN)NC(=O)[C@@H](Cc1c[nH]c2ccccc12)NC(=O)[C@H](CC(C)C)NC(=O)[C@H](CC(=O)O)NC(=O)[C@H](Cc1c[nH]cn1)NC(=O)[C@H](CC(C)C)NC(=O)C[C@@H](N)CC(C)C)[C@@H](C)CC)[C@@H](C)O)C(N)=O	–	WT-hPTH1R mouse	subcutaneous, 500 nmol/kg	–	time to recovery of blood ionized calcium	6 h
COc1ccccc1[C@H](Cn1c(=O)n(C(C)(C)C(=O)O)c(=O)c2c(C)c(-c3ncco3)sc21)OC1CCOCC1	–	human	20 mg, post-treatment	–	serum total cholesterol	208 ± 36.9 mg/dL
NCC(=O)Nc1cncc(-c2nn3c(=O)cc(N4CCNCC4)nc3s2)c1	ADP-induced platelet aggregation, light transmission aggregometry	stable CAD patients on aspirin	subcutaneous, 0.075 mg/kg, 24 h post-dose, with: ADP 20 µM	relative to: placebo	inhibition of platelet aggregation	-9.13%
Cc1c(NC(=O)c2cccnc2)c(=O)n(-c2ccccc2)n1C	histology	Dmd C3333Y mice, tibialis anterior	dose not given	–	centrally nucleated fibres	62% and 64% and 67% and 56%
CC1(C)CCC(c2ccc(Cl)cc2)=C(CN2CCN(c3ccc(C(=O)NS(=O)(=O)c4ccc(N[C@H](CCN5CCOCC5)CSc5ccccc5)c(S(=O)(=O)C(F)(F)F)c4)cc3)CC2)C1	cell killing	canine lymph node CD21+ B cells, dog 39	24 h	–	EC50	184 nM
NC/C(=C\F)COc1cccc(Cn2c(=S)[nH]c(=O)c3[nH]cnc32)c1	–	mouse, carrageenan air pouch, air pouch exudate	10 mg/kg, 12 h	–	total white blood cell count	1.8e+07 and 4.2e+07 and 1.9e+07 and 1e+07 and 4.4e+07 and 4.8e+07 and 2.8e+07 and 6e+07
CCCCOc1nc(N)c2c(n1)N(Cc1cccc(CN3CCCC3)c1)CC(=O)N2	–	human, serum	concentration not given, alone or with vorinostat or cobicistat	relative to: baseline	serum cytokines and CRP	no effect
C[C@@H](O)CCOC(=O)C[C@@H](C)O	measured: C16 acylcarnitine	human, plasma	60 min, log2-transformed values	–	metabolite level	-3.43 ± 0.32 µmol/L
Cc1ccc(N(O)N=Nc2ccc(S(=O)(=O)Nc3onc(C)c3C)cc2)cc1	carrageenan-induced paw edema	Wistar rat	oral, 100 mg/kg, 2 h after carrageenan, with: carrageenan 1% subplantar	higher = more edema	paw edema volume	5.32 ± 0.38 a.u.
COc1ccc(F)cc1C(=O)NCc1ccc(-c2nn([C@@H](C)C(F)(F)F)c(N)c2C(N)=O)cc1	–	CLL/SLL patients	dose not given, prior BTKi stopped for progression	–	overall response rate	67%
Cc1cc(NS(=O)(=O)c2ccc(N=NN(C)O)cc2)no1	carrageenan-induced paw edema	Wistar rat	oral, 100 mg/kg, 3 h after carrageenan, with: carrageenan 1% subplantar	higher = more edema	paw edema volume	4.41 ± 0.83 a.u.
Cc1n[nH]c2ccc(-c3cc(OC[C@@H](N)Cc4ccccc4)cnc3-c3ccoc3)cc12	kinase binding, competitor, MIB/MS competition, measured: SCH9	Candida albicans cell lysate	100 nM	relative to: DMSO	log2 fold change	-0.2
Cc1noc(C)c1-c1cc(C(O)(c2ccccn2)c2ccccn2)c2nc(C3CC3)[nH]c2c1	measured: CCR2 expression	human, peripheral blood	6 mg, day 1, 1604 study	–	maximum inhibition	39%
Cc1cccc(N(O)N=Nc2ccc(S(=O)(=O)Nc3nccs3)cc2)c1	carrageenan-induced paw edema	Wistar rat	oral, 100 mg/kg, 0 h (baseline), with: carrageenan 1% subplantar	higher = more edema	paw edema volume	3.61 ± 0.32 a.u.
CC(C)[C@@H](CS(=O)(=O)C(C)C)N1C(=O)[C@@](C)(CC(=O)O)C[C@H](c2cccc(Cl)c2)[C@H]1c1ccc(Cl)cc1	–	mouse, subcutaneous MDM2-amplified GBM PDX	100 mg/kg daily, 4 weeks	–	time to recurrence after last dose	> 100 days
O=C(COc1ccc(Cl)cc1)NC12CC(c3nnc([C@H]4C[C@@H](OC(F)(F)F)C4)o3)(C1)C2	–	healthy human, PBMC	oral, 200 mg single dose, day 2, 24 h post-dose, median, with: sodium arsenite ex vivo	relative to: baseline	ATF4 protein change	-45.8%
CCOC(=O)[C@H](CCc1ccccc1)N[C@@H](C)C(=O)N1CCC[C@H]1C(=O)O	–	renal hypertensive rat	sc osmotic minipump, 40 mg/kg/day	relative to: vehicle	left ventricular end-diastolic volume	increased

Excerpt of the above:
SMILES	assay	system	conditions	how to read	quantity	value
OC(CCN1CCCCC1)(c1ccccc1)C1CC2C=CC1C2 (centres unmarked)	resting-state EEG	healthy elderly humans	oral, 4 mg, eyes open, LS mean	relative to: baseline	change, theta power, EEG O1-Pz	4.5%
CCCN(O)N=Nc1ccc(S(=O)(=O)Nc2cc(C)on2)cc1	carrageenan-induced paw edema	Wistar rat	oral, 100 mg/kg, 1 h after carrageenan, with: carrageenan 1% subplantar	higher = more edema	paw edema volume	5.71 ± 0.81 a.u.
FC(F)(F)Oc1cccc(-c2cnc3ccc(-c4ccncc4)nn23)c1	bioluminescence	mouse, MDA-MB-231-Luc xenograft	30 mg/kg, day 21	–	tumour growth	248% and 523% and 158% and 301% and 380%
